# Measured values of several laboratories.
# Each numbered part is a random draw from the data of one study; scales do not carry over between parts.

# Series 1
# Target: RNA binding protein fox-1 homolog 2, RRM domain, GST-SBP tag (RBFOX2, Homo sapiens, UniProt O43251-10, residues 100-194)
# Technique: RNA Bind-n-Seq
# Form: RNA
# Sample: in vitro
# Tested at: 365 nM
# Notes: natural RNA segment, single round, ends assumed
# Reference: no-protein control
# Direction: higher = stronger binding
# All sequences stand within: GGGAGUUCUACAGUCCGACGAUC … UGGAAUUCUCGGGUGCCAA
# Residues (chain): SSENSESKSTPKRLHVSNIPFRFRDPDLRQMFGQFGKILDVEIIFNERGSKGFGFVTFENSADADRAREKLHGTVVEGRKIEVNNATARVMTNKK
Sequence,RBNS enrichment (R)
UGAACCAAACCAACUGUGUGACUGUCUGAUGUGCCACCUCACUCAGAGGGAAGCUCUAACAUUGCCUCUGUAAUAUAAUGCUAGUGACUGUAUGUAGUACAUGUUAUAUG,0.685
CUCCCUACUGCGCCCCUGUAGGCAGGAGGAAGCAGCCCAUCAGCCUAGGAAGCCAACAGCAGGGCAGGUCAACUGUAGCUUAACCUUUAGAGCUCUUCAAGGUGCAGGGA,0.45
CCCCAGUGAAGUCGGAGUCUUCCCCUGCUGAUCUGAGCCAAUCCGUAAGAGGACCCGUGAGGACACCAGAGUCUAGCCCAGAAAGCCCGGGAGGGCUGGAGAGCGAGUAC,0.291
CAUUGCCUGCACCUGAAACAGCCACCCACAUACACACUCUGGUAGGUCAGGGGGUCCCCGACAAUCCUGGACAAUCCUGAGCAGAAUACCUCCUGUUACAGUGUCUCUUG,0.555
GCAAUAUACAGCCCCAGGUAGGGAGGGGAGAGUAUGAGGAGGGUGACUGGCAGCUUCUCCUCCAGACUCCUAGCCCCGAGGUGCUGAUGGAGAUGCUCAAGGCCAGCAAG,0.65
CUACAUACAGCUGCCAUGCCCUUUCUGAACAAAGGCUGGAGUUGUCCAAUUGCAGUUCUUCUUCGCAUAGAAAUGCAAUUGGAAUAUUUACAAAUCAUAAUCAACAGAGC,0.327
UCCUGCAUCUUCUUACCCUUUACAAAGUCUGACCCGGCCAUUUCCAGCAGACCUGUGAGCCAGCCAGGGACCGGACUAGAAGCCAUGUUGCAUAUUGGGGUUUUUGUUUG,0.532
UACUUGUUAGAGGACGGAAGAUUUGCUACAGUGGUCUAGAGUUAAAAUGUGCUCUUUAGUUGCCCAGCACAAGAACGUACCACUCACCUUUUGUAUUCAUAAGCUAAUAU,0.44
UGUCCCUCCUCACAAGUGCUUAGUUUCUGUUAACUAGAAGUAUCAUUCUUGGGUGGAAAUAGGUCUCCGUUUACCUGAGCUGAGGGUUGUUUGGAAAAUAAGAGCCAAUU,0.356
AAUAAGUUGGAAAACUUAAAUUAAAAAGCAGAACCUGUUUUAUAUUAAGAAGGUCUAGACAUGGACAUUUUCUGUCCUACAAUGCUGACAUACUGUUAUUUCUUCUGGGA,0.598
AGGUCAGCCAUUCGGAAGCUGGCAGCAUUUUAUCGCAACUUUGAGCAUCUCAGAUGGGGAAGGCACCUUCUUCCUCGCCUCUCCAGAUUGUCCUGGAACCUCCAGGAUCC,0.782
GGAGUUGAAUAGCUUUUGCUUUGCAACACUAAUCCUCACACUUAAAAUGAUUCCAUUAAUCUUACUCAGAAGACAAAUAAGGAGGUUCUGAUGAAAUCUCUGAAAAAAAA,0.259

# Series 2
# Target: Sal-like protein 4, full length isoform A (SALL4, Homo sapiens, UniProt Q9UJQ4, residues 1-1053)
# Chain of UniProt Q9UJQ4 (whole entry, looked up): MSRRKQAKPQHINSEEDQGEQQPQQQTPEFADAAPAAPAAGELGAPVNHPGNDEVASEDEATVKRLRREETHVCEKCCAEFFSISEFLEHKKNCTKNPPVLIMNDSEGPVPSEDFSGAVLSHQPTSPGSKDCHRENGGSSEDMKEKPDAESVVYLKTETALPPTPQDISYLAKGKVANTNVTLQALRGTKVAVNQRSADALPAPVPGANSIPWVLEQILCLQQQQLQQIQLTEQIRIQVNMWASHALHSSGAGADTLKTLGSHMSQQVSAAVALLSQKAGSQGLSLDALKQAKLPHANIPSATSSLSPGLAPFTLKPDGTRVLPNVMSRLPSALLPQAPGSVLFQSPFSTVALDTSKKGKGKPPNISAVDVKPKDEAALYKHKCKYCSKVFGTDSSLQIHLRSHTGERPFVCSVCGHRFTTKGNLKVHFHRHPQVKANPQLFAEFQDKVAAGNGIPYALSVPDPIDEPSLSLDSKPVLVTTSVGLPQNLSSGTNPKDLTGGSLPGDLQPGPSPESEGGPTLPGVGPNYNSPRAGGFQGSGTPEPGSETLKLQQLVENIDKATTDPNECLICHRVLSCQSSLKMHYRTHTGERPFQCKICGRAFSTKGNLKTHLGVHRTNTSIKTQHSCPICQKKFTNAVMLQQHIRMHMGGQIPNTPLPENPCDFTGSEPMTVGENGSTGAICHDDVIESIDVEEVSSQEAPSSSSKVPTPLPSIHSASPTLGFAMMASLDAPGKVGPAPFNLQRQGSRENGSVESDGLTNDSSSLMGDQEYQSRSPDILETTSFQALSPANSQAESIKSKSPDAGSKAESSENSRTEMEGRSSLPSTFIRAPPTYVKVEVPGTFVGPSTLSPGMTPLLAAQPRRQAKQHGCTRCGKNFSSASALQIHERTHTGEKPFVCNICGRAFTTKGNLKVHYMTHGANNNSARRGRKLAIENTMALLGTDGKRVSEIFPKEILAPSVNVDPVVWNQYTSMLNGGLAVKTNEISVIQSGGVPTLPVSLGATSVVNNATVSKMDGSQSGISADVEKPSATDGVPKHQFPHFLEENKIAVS
# Technique: universal PBM
# Form: double-stranded DNA, one strand shown
# Sample: in vitro
# Tested at: 600 nM
# Notes: 8-mer, flanks averaged, mean of replicates
# Direction: higher = stronger binding
Sequence,E-score
AGTTGGAA,0.0199
GCCTCTCA,-0.273
CATAGTAC,-0.0175
CGAAGAGA,0.12
AGGGCCAC,-0.305
CCTACGCG,-0.304
GCAGAACC,-0.213
CCTCCAGA,0.0588
AACACGTC,-0.0694
CATTGGGA,-0.00473
GCGCTCCC,-0.276
CGCAACTA,0.0265
CTATACCC,0.0414
CTCCAGTC,-0.17
CTCGGAAA,-0.0377
ATCCGGCC,-0.321
GGGGGCAA,-0.121
ACACTAGA,0.158
ACCGAAAC,-0.135
CTCCCAGA,-0.137
GATACAGC,0.0858
AATAGAAA,0.201
CCTCCATC,-0.199
AACGTCTT,0.109
CCATCAAG,-0.1

# Series 3
# Target: RING finger protein unkempt homolog, zinc fingers 1-6, GST-SBP tag (UNK, Homo sapiens, UniProt Q9C0B0, residues 30-357)
# Technique: RNA Bind-n-Seq
# Form: RNA
# Sample: in vitro
# Tested at: not given
# Notes: RNA with constant flanks, human-mouse chimeric sites, ends assumed
# Reference: input RNA pool
# Direction: higher = stronger binding
# All sequences stand within: GGGAGUUCUACAGUCCGACGAUC … CAACAGAGGAUUGAGCAUCA
# Construct (chain): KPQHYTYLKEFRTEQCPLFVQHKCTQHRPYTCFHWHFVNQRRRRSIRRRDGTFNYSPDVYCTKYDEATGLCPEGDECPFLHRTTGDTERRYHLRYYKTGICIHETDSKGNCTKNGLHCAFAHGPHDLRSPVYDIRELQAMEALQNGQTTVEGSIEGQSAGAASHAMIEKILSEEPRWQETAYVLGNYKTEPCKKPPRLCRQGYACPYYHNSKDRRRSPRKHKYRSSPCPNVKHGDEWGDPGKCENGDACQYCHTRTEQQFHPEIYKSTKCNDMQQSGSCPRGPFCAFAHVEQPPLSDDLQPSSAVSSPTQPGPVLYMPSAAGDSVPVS
Sequence,bound/input enrichment [ratio]
CGCUGGCGUUGAACUGUGGACUCUGAUGGCCUCCAUCAAGGUAUUAUGUGUGCCUUCUCUUAGUCCCUGUUUUCGGGAUGUUAUGAAUCUCAGUACUGUGGUUUGAAAGCACCAGCUUUG,0.153
UACUCAACUUUCUUGCCACAUUUUGAAUUCCAAGACAUUAUUCCUCCAGAUGACUUUCUAACGAGUGAUGAAGAGCAAGAUUUGGUUUUAUUUGGAACUAUGAGAGGACAAGUUGUUGGA,0.194
GUGACUGGUGUUAAGAUUUCCCCUCAGAAAAGAACUGUAGCAGUGACCAUAAUUCCAUCUGUGGUGAGUGCCAGUCAGAUUGUGGAGCUGGUCCCAGACCUCAGUUUAGACAUGGGAACU,0.281
AGAUUCCCCCUCCUGAGACCUCCUCCGAAAUUGGCAUCUCUUACAGAUGCCUCAUCCCCUGUUAGCGUUUUAGUUUGGACCACCCAGCCUUGGACAAUUCCCGCCAACCAGGCAAUUUGC,1.64
CGCUGGCCCAAGCUGAUGGACUCUGAUGGCCUCCAUCUCUCAGGCACGUGUGCCUUCUCUUAGUCCCUGUUUUCGGGUCACAAAGCUCAGUAUCAUGGUGGUUUGAAAGCACCAGCUUUG,0.115
AACAUUUUGUCAAAUUGUUAUGUUCCUGUGAAACAAGUGAACACUCUGAUACACUUCAUCUGCUUGUACAUCUGUAUGAUAGAGAAAUGUAAAUAUGUUAAUCCAAGCAAUGUGUCACUU,0.254
CAGUCCCCGUGUCCCAGGGGACAAUGUUGUGAACAAAAACUCAAAGCGGACCCUCUAUUGUAGUUCUUGAUUCUCGAAAUGUGCUAUUGUUUUUAAACUUUUUUUUUUUUUUUUUAAAGA,1.31
GCUGGAUCUUCUAAGUACCAGUGGGACAUUAUGAAAUCCCUUGGCCUCUCUGAUGACGACAUAGUGAAGUUUUCUGAAGCAGAGCACUGGCUUGAUUAUUUCCCACCACUGGCCGUUCAG,0.122
AGCACAACCCCAGCAAAGCUAAGAAAUCCUUGUACAAGUGAACAAAACUGCACCAGCCCAUUUAGCUACAAAAAUGUGCUCAGUCUUACUGACAGAGGAGAGUUUUUUAAUGAACUUGUU,1.27
ACACAAUAUGAGACCAACAGCAUGGACUUCAAAGUUGGGGCAGAUGGGACAGUCUUCGCCACCCGGGAGCUGCAGGUCCCCUCAGAGCAGGUGGCGUUCACGGUGACUGCGCGGGAAAGC,0.19
UGACAAGGGCACUGCAGAGCCAUGCCUUUCCUUGACAUACAGAAAAAGCUGGGCAUCAGCCUGGACCGGCACUUUAUGUUCCUAAGCGCAGAACAGCCCUACAAGAUGGCUGGUCGAUGC,0.0784

# Series 4
# Target: Histone acetyltransferase KAT6A, both winged helices, GST fusion (KAT6A, Homo sapiens, UniProt Q92794, residues 1-181)
# Technique: protein binding microarray
# Form: double-stranded DNA, one strand shown
# Sample: in vitro
# Tested at: not given
# Notes: 8-mer, flanks averaged, mean of 2 arrays, mostly near background
# Reference: not given
# Direction: higher = stronger binding
# Residues (chain): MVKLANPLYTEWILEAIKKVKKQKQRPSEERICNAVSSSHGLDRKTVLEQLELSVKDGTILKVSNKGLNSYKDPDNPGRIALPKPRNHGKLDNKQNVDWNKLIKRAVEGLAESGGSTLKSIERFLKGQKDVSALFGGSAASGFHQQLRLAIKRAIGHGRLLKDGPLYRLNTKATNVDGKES
Sequence,E-score
ACGTCCAG,-0.0963
TGCTGCCA,-0.136
GAAGGCCA,-0.159
AGAGGCGC,0.258
AGACCAGG,-0.114
TCCAGGAA,-0.151
CAACCCCC,-0.151
ACTGAAGC,-0.0171
CGTACTGC,0.0914
GGGCCGAA,0.0407
CACAAATA,-0.00223
AAACGACC,0.0227
AACGCAAG,-0.00169
ATTCACGG,0.184
GCGGTGCC,0.204
ATTAGTTA,-0.0632
TGCTTGAA,-0.0405

# Series 5
# Target: TAR DNA-binding protein 43, full length, His tag (TARDBP, Homo sapiens, UniProt Q13148, residues 1-414)
# Technique: RNA Bind-n-Seq
# Form: RNA
# Sample: in vitro
# Tested at: 20 nM
# Notes: 6-mer, flanks averaged, single round
# With: 150 mM KCl
# Reference: input library
# Direction: higher = stronger binding
Sequence,6-mer enrichment (R)
GAUUGC,0.785
UGGCUA,0.793
ACCAAA,0.663
CGAGUC,0.777
UCAGUA,0.63
UAGUGC,0.794
UCCGAU,0.579
CAAGUU,0.603
CUCACG,0.663
AUUUCU,0.573
GAUGCA,0.895
UUUCCA,0.583
GCCUGU,0.804
CUUUUA,0.641
ACCAUC,0.596
GUGUAC,0.888
GGAUAU,0.863
ACAAGA,0.754
GUCGGC,1.39
AGACUA,0.627
GAAGGG,4.44

# A few entries again (series 3):
Sequence,bound/input enrichment [ratio]
GUGACUGGUGUUAAGAUUUCCCCUCAGAAAAGAACUGUAGCAGUGACCAUAAUUCCAUCUGUGGUGAGUGCCAGUCAGAUUGUGGAGCUGGUCCCAGACCUCAGUUUAGACAUGGGAACU,0.281
AGAUUCCCCCUCCUGAGACCUCCUCCGAAAUUGGCAUCUCUUACAGAUGCCUCAUCCCCUGUUAGCGUUUUAGUUUGGACCACCCAGCCUUGGACAAUUCCCGCCAACCAGGCAAUUUGC,1.64
CGCUGGCCCAAGCUGAUGGACUCUGAUGGCCUCCAUCUCUCAGGCACGUGUGCCUUCUCUUAGUCCCUGUUUUCGGGUCACAAAGCUCAGUAUCAUGGUGGUUUGAAAGCACCAGCUUUG,0.115
AACAUUUUGUCAAAUUGUUAUGUUCCUGUGAAACAAGUGAACACUCUGAUACACUUCAUCUGCUUGUACAUCUGUAUGAUAGAGAAAUGUAAAUAUGUUAAUCCAAGCAAUGUGUCACUU,0.254
